Assay results gathered from unrelated publications.
A part holds a random share of what one study measured.
UniProt P42684, sequence (whole entry, looked up): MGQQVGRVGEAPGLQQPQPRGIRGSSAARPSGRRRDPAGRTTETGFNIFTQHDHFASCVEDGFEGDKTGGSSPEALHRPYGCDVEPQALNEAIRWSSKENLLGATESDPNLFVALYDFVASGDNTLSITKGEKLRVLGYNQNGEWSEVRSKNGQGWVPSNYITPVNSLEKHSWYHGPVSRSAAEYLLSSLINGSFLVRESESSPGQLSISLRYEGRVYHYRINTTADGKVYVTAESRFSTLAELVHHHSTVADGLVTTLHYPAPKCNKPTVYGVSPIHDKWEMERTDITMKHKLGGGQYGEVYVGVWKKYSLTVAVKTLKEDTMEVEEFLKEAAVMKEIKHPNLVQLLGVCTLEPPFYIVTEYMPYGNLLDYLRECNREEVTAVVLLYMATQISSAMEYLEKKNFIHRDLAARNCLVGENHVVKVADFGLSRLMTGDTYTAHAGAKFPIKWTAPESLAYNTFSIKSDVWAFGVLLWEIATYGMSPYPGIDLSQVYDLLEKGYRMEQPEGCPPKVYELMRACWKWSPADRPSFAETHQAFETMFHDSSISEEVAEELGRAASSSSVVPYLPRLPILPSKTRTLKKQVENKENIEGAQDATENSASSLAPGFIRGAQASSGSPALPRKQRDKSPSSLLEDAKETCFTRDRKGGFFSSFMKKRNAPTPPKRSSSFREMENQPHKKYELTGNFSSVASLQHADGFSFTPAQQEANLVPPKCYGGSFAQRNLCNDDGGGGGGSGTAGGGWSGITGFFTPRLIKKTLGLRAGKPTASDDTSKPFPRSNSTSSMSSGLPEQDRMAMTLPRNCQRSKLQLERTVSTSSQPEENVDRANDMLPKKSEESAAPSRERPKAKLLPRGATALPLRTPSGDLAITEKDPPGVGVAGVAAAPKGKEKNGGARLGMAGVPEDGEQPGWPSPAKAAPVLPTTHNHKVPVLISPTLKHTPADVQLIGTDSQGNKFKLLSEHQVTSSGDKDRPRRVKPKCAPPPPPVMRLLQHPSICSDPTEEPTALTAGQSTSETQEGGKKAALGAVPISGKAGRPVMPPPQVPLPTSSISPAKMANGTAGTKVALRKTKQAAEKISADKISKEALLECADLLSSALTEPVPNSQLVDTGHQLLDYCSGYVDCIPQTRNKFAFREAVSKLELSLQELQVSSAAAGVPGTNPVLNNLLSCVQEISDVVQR
UniProt P62344, sequence (whole entry, looked up): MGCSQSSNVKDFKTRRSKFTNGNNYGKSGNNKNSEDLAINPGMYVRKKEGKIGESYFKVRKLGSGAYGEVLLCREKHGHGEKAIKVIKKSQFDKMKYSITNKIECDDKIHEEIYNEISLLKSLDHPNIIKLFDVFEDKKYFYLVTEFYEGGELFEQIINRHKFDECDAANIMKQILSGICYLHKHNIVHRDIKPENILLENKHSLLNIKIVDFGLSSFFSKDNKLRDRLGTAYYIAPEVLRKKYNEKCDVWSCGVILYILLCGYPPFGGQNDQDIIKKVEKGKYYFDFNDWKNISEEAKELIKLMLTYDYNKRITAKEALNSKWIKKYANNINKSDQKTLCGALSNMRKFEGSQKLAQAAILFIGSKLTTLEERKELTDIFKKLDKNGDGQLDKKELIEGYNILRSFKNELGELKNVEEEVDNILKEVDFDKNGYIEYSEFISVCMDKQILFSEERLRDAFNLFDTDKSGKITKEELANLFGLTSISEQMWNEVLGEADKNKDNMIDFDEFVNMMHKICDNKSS
UniProt Q96GD4, sequence (whole entry, looked up): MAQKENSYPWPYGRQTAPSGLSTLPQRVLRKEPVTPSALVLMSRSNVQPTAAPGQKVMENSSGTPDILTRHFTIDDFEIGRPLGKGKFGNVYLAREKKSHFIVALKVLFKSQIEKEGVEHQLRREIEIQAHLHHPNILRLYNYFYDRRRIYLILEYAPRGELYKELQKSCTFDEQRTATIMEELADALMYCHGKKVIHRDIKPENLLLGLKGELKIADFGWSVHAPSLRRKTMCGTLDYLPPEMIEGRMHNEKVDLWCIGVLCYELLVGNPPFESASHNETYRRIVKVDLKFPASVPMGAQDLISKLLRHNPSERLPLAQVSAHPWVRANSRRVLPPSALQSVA

Block 1
Target: Cyclin-dependent kinase 12, with cyclin K (CDK12, Homo sapiens, UniProt Q9NYV4)
UniProt Q9NYV4, sequence (whole entry, looked up): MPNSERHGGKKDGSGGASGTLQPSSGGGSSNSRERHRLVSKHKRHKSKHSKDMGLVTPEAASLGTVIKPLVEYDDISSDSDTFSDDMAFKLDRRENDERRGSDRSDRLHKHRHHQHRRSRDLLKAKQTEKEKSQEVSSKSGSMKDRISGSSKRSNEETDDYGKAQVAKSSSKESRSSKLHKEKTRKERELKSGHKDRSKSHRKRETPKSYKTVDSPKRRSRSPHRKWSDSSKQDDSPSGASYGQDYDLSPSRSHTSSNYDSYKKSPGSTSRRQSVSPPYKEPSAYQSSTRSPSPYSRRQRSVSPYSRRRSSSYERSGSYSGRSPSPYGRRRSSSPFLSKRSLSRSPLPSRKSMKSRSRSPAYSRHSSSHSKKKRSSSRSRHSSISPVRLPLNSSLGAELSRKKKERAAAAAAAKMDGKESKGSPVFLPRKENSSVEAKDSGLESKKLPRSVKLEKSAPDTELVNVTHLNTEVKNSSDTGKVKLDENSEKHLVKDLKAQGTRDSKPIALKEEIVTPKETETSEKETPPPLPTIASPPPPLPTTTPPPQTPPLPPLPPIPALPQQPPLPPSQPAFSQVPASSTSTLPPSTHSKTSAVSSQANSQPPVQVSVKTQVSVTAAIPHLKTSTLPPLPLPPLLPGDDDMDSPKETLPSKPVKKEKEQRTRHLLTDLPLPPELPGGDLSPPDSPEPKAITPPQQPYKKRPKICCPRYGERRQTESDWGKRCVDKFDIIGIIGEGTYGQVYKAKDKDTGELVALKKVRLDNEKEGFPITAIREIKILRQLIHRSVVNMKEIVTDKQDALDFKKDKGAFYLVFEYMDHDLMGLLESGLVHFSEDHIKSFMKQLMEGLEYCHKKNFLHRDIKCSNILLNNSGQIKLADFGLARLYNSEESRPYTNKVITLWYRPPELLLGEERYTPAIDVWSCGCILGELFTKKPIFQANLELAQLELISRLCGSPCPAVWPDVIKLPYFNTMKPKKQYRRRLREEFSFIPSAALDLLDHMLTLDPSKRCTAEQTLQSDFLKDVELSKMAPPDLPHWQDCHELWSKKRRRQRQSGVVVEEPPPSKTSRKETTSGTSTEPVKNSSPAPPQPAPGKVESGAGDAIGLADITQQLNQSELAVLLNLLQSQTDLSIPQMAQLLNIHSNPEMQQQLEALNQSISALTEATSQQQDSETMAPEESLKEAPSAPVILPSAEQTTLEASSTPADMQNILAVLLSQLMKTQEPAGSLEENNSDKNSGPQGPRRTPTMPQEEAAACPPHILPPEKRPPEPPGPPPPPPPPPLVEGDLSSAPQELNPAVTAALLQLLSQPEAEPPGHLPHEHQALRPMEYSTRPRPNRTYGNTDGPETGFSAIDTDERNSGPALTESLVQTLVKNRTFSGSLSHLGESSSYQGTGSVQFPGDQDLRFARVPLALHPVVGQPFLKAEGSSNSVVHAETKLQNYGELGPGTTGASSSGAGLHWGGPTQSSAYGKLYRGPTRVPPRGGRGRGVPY
Read-out: kinase activity
Mode: inhibitor
Technique: ADP-Glo
Concentration: 2 µM
SMILES	inhibition [%]
CCn1cnc2c(NCc3nc4cc(F)c(F)cc4[nH]3)nc(N3CCn4ncnc4C3)nc21	86.2
CCn1cnc2c(NCc3nc4cc(Cl)c(Cl)cc4[nH]3)nc(N3CCn4ncnc4C3)nc21	92.9
CCn1cnc2c(NCc3nc4cc(Cl)c(Cl)cc4[nH]3)nc(N3CCN(S(C)(=O)=O)CC3)nc21	89
CCn1cnc2c(NCc3nc4cc(Cl)c(Cl)cc4[nH]3)nc(N3CCC(NC(C)=O)CC3)nc21	87.6
CCn1cnc2c(NCc3nc4cc(Cl)c(Cl)cc4[nH]3)nc(N3CCN(C(=O)c4cccnc4)CC3)nc21	88.4
CC(=O)N1CCN(c2nc(NCc3nc4cc(Cl)c(Cl)cc4[nH]3)c3ncn(C(C)C)c3n2)CC1	13.5
CCn1cnc2c(NCc3nc4cc(Cl)c(Cl)cc4[nH]3)nc(N3CCN(C(=O)CNC(C)=O)CC3)nc21	90.2
CCn1cnc2c(NCc3nc4cc(Cl)c(Cl)cc4[nH]3)nc(N3CCN(Cc4ccncc4)CC3)nc21	74.3
CCCCOc1nc(NCc2nc3cc(Cl)c(Cl)cc3[nH]2)c2ncn(CC)c2n1	76.9
CCn1cnc2c(NCc3nc4cc(Cl)c(Cl)cc4[nH]3)nc(N3CCN(C(C)=O)CC3)nc21	91.3

Block 2
Compound: COc1cc(-c2nc3ccc(C(=O)NCCCN(C)C)cc3n2C2CCC2)cc(OC)c1OC
target	test	setting	remaining binding [%]
TAOK2 (Homo sapiens, UniProt Q9UL54)	binding, competition with immobilised ligand	1 µM	100
CIT (Homo sapiens, UniProt O14578)	binding, competition with immobilised ligand	1 µM	86
MATK (Homo sapiens, UniProt P42679)	binding, competition with immobilised ligand	1 µM	65
LCK (Homo sapiens, UniProt P06239)	binding, competition with immobilised ligand	1 µM	6.4
MAP3K12 (Homo sapiens, UniProt Q12852)	binding, competition with immobilised ligand	1 µM	100
TNNI3K (Homo sapiens, UniProt Q59H18)	binding, competition with immobilised ligand	1 µM	92
NEK6 (Homo sapiens, UniProt Q9HC98)	binding, competition with immobilised ligand	1 µM	100
CDPK1 (Plasmodium falciparum, UniProt P62344)	binding, competition with immobilised ligand	1 µM	95
CLK4 (Homo sapiens, UniProt Q9HAZ1)	binding, competition with immobilised ligand	1 µM	85
PIK3C2G (Homo sapiens, UniProt O75747)	binding, competition with immobilised ligand	1 µM	63
MAP2K7 (Homo sapiens, UniProt O14733)	KINOMEscan	1000 nM	94
ABL2 (Homo sapiens, UniProt P42684)	binding, competition with immobilised ligand	1 µM	86
MAK (Homo sapiens, UniProt P20794)	binding, competition with immobilised ligand	1 µM	100
KIT (Homo sapiens, UniProt P10721, T670I/V559D)	binding, competition with immobilised ligand	1 µM	80
Aurora kinase B (AURKB, Homo sapiens, UniProt Q96GD4)	binding, competition with immobilised ligand	1 µM	92
ULK3 (Homo sapiens, UniProt Q6PHR2)	binding, competition with immobilised ligand	1 µM	99
CAMKK2 (Homo sapiens, UniProt Q96RR4)	binding, competition with immobilised ligand	1 µM	82
FRK (Homo sapiens, UniProt P42685)	binding, competition with immobilised ligand	1 µM	83

Block 3
Structure (SMILES): O=C(Nc1ccccc1)Nc1cccc(Oc2ccc3nccn3n2)c1
Read-out: binding
Concentration: 1 µM
target	test	remaining binding
TYRO3 (Homo sapiens, UniProt Q06418)		89%
SGK3 (Homo sapiens, UniProt Q96BR1)		91%
MAP3K5 (Homo sapiens, UniProt Q99683)		100%
ROS1 (Homo sapiens, UniProt P08922)		100%
TESK1 (Homo sapiens, UniProt Q15569)	competition with immobilised ligand	100%
ABL2 (Homo sapiens, UniProt P42684)	competition with immobilised ligand	69%
Non-receptor tyrosine-protein kinase TYK2, JH2 (TYK2, Homo sapiens, UniProt P29597)	competition with immobilised ligand	99%
MAP2K3 (Homo sapiens, UniProt P46734)		100%
DAPK1 (Homo sapiens, UniProt P53355)		90%
GRK4 (Homo sapiens, UniProt P32298)		77%
STK24 (Homo sapiens, UniProt Q9Y6E0)		97%
BMPR1B (Homo sapiens, UniProt O00238)	competition with immobilised ligand	100%
GRK3 (Homo sapiens, UniProt P35626)		100%
PNCK (Homo sapiens, UniProt Q6P2M8)		100%

Block 4
Compound: C[C@@H]1CN(c2ccc(-c3cc(C(=O)NCCOCCOCCOCCOCCNC(=O)Cn4cc(-c5[nH]cc(C(=O)N[C@@H](CC(N)=O)c6ccc(F)c(Cl)c6)c5-c5ccc(Cl)cc5F)cn4)ccc3F)cc2NC(=O)c2c[nH]c(=O)cc2C(F)(F)F)C[C@H](C)N1C
Read-out: thermal unfolding
Technique: differential scanning fluorimetry
Concentration: 5.5 µM
Direction: higher = more unfolded
WDR5: WD repeat-containing protein 5 (WDR5, Homo sapiens, UniProt P61964)
DCAF1: DDB1- and CUL4-associated factor 1 (DCAF1, Homo sapiens, UniProt Q9Y4B6)
UniProt Q9Y4B6, sequence (whole entry, looked up): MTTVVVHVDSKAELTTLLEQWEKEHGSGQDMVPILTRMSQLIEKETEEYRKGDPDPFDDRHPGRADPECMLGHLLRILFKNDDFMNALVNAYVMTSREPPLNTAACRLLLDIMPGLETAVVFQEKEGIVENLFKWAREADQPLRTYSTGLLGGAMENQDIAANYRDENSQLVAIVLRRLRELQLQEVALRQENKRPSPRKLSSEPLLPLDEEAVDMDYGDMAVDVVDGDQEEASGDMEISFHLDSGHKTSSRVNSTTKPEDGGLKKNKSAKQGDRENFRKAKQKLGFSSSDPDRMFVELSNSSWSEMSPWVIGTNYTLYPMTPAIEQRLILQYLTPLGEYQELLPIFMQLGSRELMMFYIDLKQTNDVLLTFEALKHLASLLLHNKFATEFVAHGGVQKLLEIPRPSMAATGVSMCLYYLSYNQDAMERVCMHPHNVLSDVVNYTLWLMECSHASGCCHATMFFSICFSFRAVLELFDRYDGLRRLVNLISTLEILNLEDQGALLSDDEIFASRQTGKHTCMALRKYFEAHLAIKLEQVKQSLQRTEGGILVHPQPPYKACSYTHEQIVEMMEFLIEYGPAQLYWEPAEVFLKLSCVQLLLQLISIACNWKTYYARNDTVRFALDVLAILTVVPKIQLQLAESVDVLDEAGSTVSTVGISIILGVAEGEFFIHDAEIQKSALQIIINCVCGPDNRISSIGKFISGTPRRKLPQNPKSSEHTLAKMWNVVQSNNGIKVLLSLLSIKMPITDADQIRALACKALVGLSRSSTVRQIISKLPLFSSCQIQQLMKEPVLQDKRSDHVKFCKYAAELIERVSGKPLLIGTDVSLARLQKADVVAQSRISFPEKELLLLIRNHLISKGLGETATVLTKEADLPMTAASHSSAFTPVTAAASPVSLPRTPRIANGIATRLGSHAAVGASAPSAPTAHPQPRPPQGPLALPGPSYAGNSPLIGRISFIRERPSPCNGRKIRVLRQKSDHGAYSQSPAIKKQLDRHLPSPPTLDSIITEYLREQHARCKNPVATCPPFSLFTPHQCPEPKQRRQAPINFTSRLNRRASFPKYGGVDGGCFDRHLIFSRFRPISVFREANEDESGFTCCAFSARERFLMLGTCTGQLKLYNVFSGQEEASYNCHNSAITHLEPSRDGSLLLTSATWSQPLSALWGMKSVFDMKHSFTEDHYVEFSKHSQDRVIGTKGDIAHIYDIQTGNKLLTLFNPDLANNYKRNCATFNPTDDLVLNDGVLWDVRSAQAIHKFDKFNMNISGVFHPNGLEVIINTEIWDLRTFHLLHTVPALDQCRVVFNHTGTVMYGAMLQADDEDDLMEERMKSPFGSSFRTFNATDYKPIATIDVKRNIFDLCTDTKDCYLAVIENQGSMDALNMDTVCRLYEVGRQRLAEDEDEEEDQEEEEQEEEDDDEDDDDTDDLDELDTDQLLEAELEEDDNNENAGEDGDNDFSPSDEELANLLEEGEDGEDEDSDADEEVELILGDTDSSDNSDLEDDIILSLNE
target	setting	SYPRO Orange fluorescence [a.u.]
WDR5	42 °C	14200
DCAF1	34.8 °C	8790
WDR5	46.2 °C	14300
DCAF1	37.2 °C	9440
DCAF1	88.21 °C	36800
WDR5	83.21 °C	34200
WDR5	41.8 °C	14200

A few entries again (block 3):
target	test	remaining binding
GRK3 (Homo sapiens, UniProt P35626)		100%
TYRO3 (Homo sapiens, UniProt Q06418)		89%
STK24 (Homo sapiens, UniProt Q9Y6E0)		97%
TESK1 (Homo sapiens, UniProt Q15569)	competition with immobilised ligand	100%
GRK4 (Homo sapiens, UniProt P32298)		77%
DAPK1 (Homo sapiens, UniProt P53355)		90%
MAP3K5 (Homo sapiens, UniProt Q99683)		100%
ABL2 (Homo sapiens, UniProt P42684)	competition with immobilised ligand	69%
